{"data": "Assay results pooled from the literature", "rep nsp14 N7-methyltransferase": "Replicase polyprotein 1ab, nsp14 N7-methyltransferase (rep, Severe acute respiratory syndrome coronavirus 2, UniProt P0DTD1)", "rep main protease": "Replicase polyprotein 1ab, main protease (rep, Severe acute respiratory syndrome coronavirus 2, UniProt P0DTD1)", "note": "Lines come from different studies, so protocols differ. Values joined by “and” are separate records of one study, mostly repeats; a detail may differ. Numbers after ± are the reported error."}
{"SMILES": "CCOC(=O)c1c(NC(=O)c2ccc3c(c2)CC(c2ccccc2)OC3=O)sc(C)c1C (stereo not drawn)", "target or system": "rep nsp14 N7-methyltransferase", "assay": "N7-methyltransferase activity, inhibitor, Py-FLINT", "measurement": "Hill slope", "result": "1.04 ± 0.08"}
{"SMILES": "Cc1nn(-c2ccc(Cl)cc2)c2c1C(c1ccc(Cl)cc1Cl)C(C#N)=C(N)O2 (stereo not drawn)", "target or system": "rep main protease", "assay": "3CL protease activity", "setting": "0.1 µg/mL, 120 min, enzyme 100 ng/mL", "measurement": "inhibition", "result": "50.6%"}
{"SMILES": "Cn1cc(C(=O)N2Cc3ccccc3C[C@H]2CNC(=O)c2cccc3[nH]ncc23)nn1", "target or system": "rep main protease", "assay": "enzyme activity, inhibitor", "setting": "5 µM, run 1", "measurement": "inhibition", "result": "11.9%"}
{"SMILES": "CC(C)[C@H](O)C(=O)N[C@@H](C)C(=O)N[C@@H]1C(=O)N(C)CCc2ccccc21", "target or system": "rep main protease", "assay": "reporter gene (mKate2), inhibitor", "setting": "20 µM", "measurement": "inhibition", "result": "-0.768%"}
{"SMILES": "O=C(NC[C@H](NC(=O)c1cncc2c1CCNC2=O)c1ccc2ccccc2c1)c1ccon1", "target or system": "rep main protease", "assay": "enzyme activity, inhibitor", "setting": "5 µM, mean of runs", "measurement": "inhibition", "result": "11%"}
{"SMILES": "CN1CCc2nc(C(=O)N[C@@H]3C[C@@H](C(=O)N(C)C)CC[C@@H]3NC(=O)C(=O)Nc3ccc(Cl)cn3)sc2C1.Cc1ccc(S(=O)(=O)O)cc1.O", "target or system": "rep main protease", "assay": "reporter gene (Gaussia luciferase), inhibitor", "setting": "20 µM", "measurement": "inhibition", "result": "0.714%"}
{"SMILES": "CC(=O)N1CCN(C(=S)c2ccc(Cl)cc2)CC1", "target or system": "rep nsp14 N7-methyltransferase", "assay": "N7-methyltransferase activity, inhibitor, Py-FLINT", "measurement": "Hill slope", "result": "0.88 ± 0.24"}
{"SMILES": "O=C(N[C@@H]1CCCC[C@]12CCCN(C(=O)c1cc[nH]c(=O)c1)C2)c1cncc2ccccc12", "target or system": "rep main protease", "assay": "enzyme activity, inhibitor", "setting": "5 µM, mean of runs", "measurement": "inhibition", "result": "11.7%"}
{"SMILES": "Nc1ncnc2c([C@@H]3N[C@H](CO)[C@@H](O)[C@H]3O)c[nH]c12", "target or system": "Marburg virus", "assay": "antibody staining", "system": "HeLa, Musoke", "setting": "100 µM", "measurement": "antigen-positive cells", "result": "0.119% and 0.9%"}
{"SMILES": "O=c1c2ccccc2[se]n1-c1ccccc1", "target or system": "rep main protease", "assay": "enzyme activity, inhibitor, FRET", "measurement": "Hill coefficient", "result": "2.61 ± 0.25"}
{"SMILES": "Cc1nc(C(=O)N2CC[C@H](N[C@@H]3N=C(c4ccccc4)Nc4ccccc43)C2)cc(=O)[nH]1", "target or system": "rep main protease", "assay": "enzyme activity, inhibitor", "setting": "5 µM, run 1", "measurement": "inhibition", "result": "8.2%"}
{"SMILES": "Cc1cc(-c2nn3c(-c4ccccc4)nnc3s2)c2ccccc2n1", "target or system": "rep nsp14 N7-methyltransferase", "assay": "N7-methyltransferase activity, inhibitor, Py-FLINT", "measurement": "Hill slope", "result": "1.33 ± 0.16"}
{"SMILES": "CC1=C(C(=O)OC2CCCCC2)C(c2ccc([N+](=O)[O-])cc2)C2=C(CC(C)(C)CC2=O)N1 (stereo not drawn)", "target or system": "rep main protease", "assay": "viral replication, mKate2 reporter", "system": "SARS-CoV-2", "setting": "20 µM", "measurement": "inhibition", "result": "0.0469%"}
{"SMILES": "O=C1NC(=O)C2(CC(C(=O)N3CCC[C@H]([C@H]4CCCN(C(=O)Cc5cccnc5)C4)C3)C2)N1 (stereo partly drawn)", "target or system": "rep main protease", "assay": "enzyme activity, inhibitor", "setting": "5 µM, mean of runs", "measurement": "inhibition", "result": "11.1%"}
{"SMILES": "NC(=O)C1=C(O)C[C@@H]2C[C@@H]3Cc4cccc(O)c4C(=O)C3=C(O)[C@]2(O)C1=O", "target or system": "rep main protease", "assay": "reporter gene (Gaussia luciferase), inhibitor", "setting": "20 µM", "measurement": "inhibition", "result": "-1.05%"}
{"SMILES": "CC1CC(c2cccc(C(=O)O)c2)=NN1c1ccc(C#N)c(Cl)c1.N (stereo not drawn)", "target or system": "Replicase polyprotein 1ab, nsp14 methyltransferase (rep, Severe acute respiratory syndrome coronavirus 2, UniProt P0DTD1)", "measurement": "lipophilic ligand efficiency", "result": 2.3}
{"SMILES": "Cl.Clc1ccc(Cn2c(CN3CCCC3)nc3ccccc32)cc1", "target or system": "rep main protease", "assay": "reporter gene (mKate2), inhibitor", "setting": "20 µM", "measurement": "inhibition", "result": "-0.214%"}
{"SMILES": "CC[C@H](C)[C@H](NC(=O)[C@H](CC(C)C)NC(=O)[C@H](Cc1c[nH]c2ccccc12)NC(=O)[C@H](CCC(N)=O)NC(=O)[C@@H](NC(=O)[C@H](Cc1ccccc1)NC(=O)[C@H](C)NC(=O)[C@H](CCCCNC(=O)COCCOCCNC(=O)COCCOCCNC(=O)CC[C@H](NC(=O)CCCCCCCCCCCCCCCCCCC(=O)O)C(=O)O)NC(=O)[C@H](CCC(N)=O)NC(=O)[C@H](C)NC(=O)[C@@H](NC(=O)[C@H](CCCCN)NC(=O)[C@H](CC(=O)O)NC(=O)[C@H](CC(C)C)NC(=O)C(C)(C)NC(=O)[C@@H](NC(=O)[C@H](CO)NC(=O)[C@H](Cc1ccc(O)cc1)NC(=O)[C@H](CC(=O)O)NC(=O)[C@H](CO)NC(=O)[C@@H](NC(=O)[C@H](Cc1ccccc1)NC(=O)[C@@H](NC(=O)CNC(=O)[C@H](CCC(=O)O)NC(=O)C(C)(C)NC(=O)[C@@H](N)Cc1ccc(O)cc1)[C@@H](C)O)[C@@H](C)O)[C@@H](C)CC)[C@@H](C)CC)C(C)C)C(=O)N[C@@H](C)C(=O)NCC(=O)NCC(=O)N1CCC[C@H]1C(=O)N[C@@H](CO)C(=O)N[C@@H](CO)C(=O)NCC(=O)N[C@@H](C)C(=O)N1CCC[C@H]1C(=O)N1CCC[C@H]1C(=O)N1CCC[C@H]1C(=O)N[C@@H](CO)C(N)=O", "system": "healthy human", "setting": "0.25 mg, single ascending dose", "measurement": "injection site reaction", "result": "16.7%"}
{"note": "For quick reference, copied from above:"}
{"SMILES": "Cc1cc(-c2nn3c(-c4ccccc4)nnc3s2)c2ccccc2n1", "target or system": "rep nsp14 N7-methyltransferase", "assay": "N7-methyltransferase activity, inhibitor, Py-FLINT", "measurement": "Hill slope", "result": "1.33 ± 0.16"}
{"SMILES": "CN1CCc2nc(C(=O)N[C@@H]3C[C@@H](C(=O)N(C)C)CC[C@@H]3NC(=O)C(=O)Nc3ccc(Cl)cn3)sc2C1.Cc1ccc(S(=O)(=O)O)cc1.O", "target or system": "rep main protease", "assay": "reporter gene (Gaussia luciferase), inhibitor", "setting": "20 µM", "measurement": "inhibition", "result": "0.714%"}
{"SMILES": "Cc1nc(C(=O)N2CC[C@H](N[C@@H]3N=C(c4ccccc4)Nc4ccccc43)C2)cc(=O)[nH]1", "target or system": "rep main protease", "assay": "enzyme activity, inhibitor", "setting": "5 µM, run 1", "measurement": "inhibition", "result": "8.2%"}
